Measurements collected from several papers.
Numbered parts are unrelated; each lists some results of a single study. Changes are numbered by the printed parent chain.

Series 1 — method: protein binding microarray; form: double-stranded DNA, one strand shown; sample: in vitro; tested at: not given; baseline: not given; direction: higher = stronger binding; measurement: E-score
Target: Histone acetyltransferase KAT6A, winged helix 2, GST fusion (KAT6A, Homo sapiens, UniProt Q92794, residues 85-181)
Setting: 8-mer, flanks averaged, mean of 2 arrays, mostly near background
Target sequence (chain): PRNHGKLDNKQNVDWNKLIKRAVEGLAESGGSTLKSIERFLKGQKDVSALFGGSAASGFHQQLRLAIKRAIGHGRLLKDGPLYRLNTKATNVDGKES
AGACGGCG: 0.137
GATCGGGC: 0.115
ATAGCGAA: 0.065
AAGGGGTA: -0.208
TCAGGTAA: -0.174
ATCCGGAG: 0.211
ACTAACGA: -0.0319
CCATGATA: 0.0118
CCGTAAGA: -0.132
AGACACCG: 0.0331
ACGAGCCG: 0.0811
AGCACCAC: -0.129
CTGCTGCC: -0.0303
CACATACG: -0.217
CGTATCAG: 0.0361
GGCGTCAC: -0.0307
AGCACGGA: -0.112
AGTTTTCA: 0.0892
GTACGATA: -0.101
GTTCAACA: 0.101
AGTGGGGG: -0.124
GACGCATC: 0.086
TGCCCGCA: 0.148
CCAACTAC: -0.00166
ACTAATTG: -0.0214

Series 2 — target: CCND3, cyclin fold, Cln2 fusion (human); method: yeast growth competition, sequencing; sample: yeast; setting: weak parent motif; baseline: not given; direction: higher = stronger binding; measurement: normalised enrichment score
Starting sequence: RB1 docking peptide (human); PKPLKKLRFDIEG; partner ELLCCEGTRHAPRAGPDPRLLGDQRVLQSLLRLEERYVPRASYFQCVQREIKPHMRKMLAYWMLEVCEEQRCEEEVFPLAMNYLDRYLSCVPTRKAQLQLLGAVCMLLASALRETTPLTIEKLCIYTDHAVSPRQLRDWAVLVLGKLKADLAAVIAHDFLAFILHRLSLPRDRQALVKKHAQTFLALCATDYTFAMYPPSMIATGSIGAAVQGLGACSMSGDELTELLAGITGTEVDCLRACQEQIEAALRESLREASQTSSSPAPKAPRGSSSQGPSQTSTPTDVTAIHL
K6V: 0.0559
F9T: 0.163
G13P: 0.139
L4T: 0.0795
D10L: 0.25
P1E: 0.0708
K6E: 0.0307
K5S: 0.116
L4G: 0.207
D10G: 0.291
K2T: 0.0519
G13Q: 0.124
L4V: 0.105
E12I: 0.196
K5E: 0.0854
I11L: 0.156
P1M: 0.0101
P3I: 0.084

Series 3 — method: RNA Bind-n-Seq; form: RNA; sample: in vitro; tested at: not given; baseline: input RNA pool; direction: higher = stronger binding; measurement: bound/input enrichment
Target: RING finger protein unkempt homolog, zinc fingers 1-6, GST-SBP tag (UNK, Homo sapiens, UniProt Q9C0B0, residues 30-357)
Sequence of UniProt Q9C0B0 (30-357, looked up): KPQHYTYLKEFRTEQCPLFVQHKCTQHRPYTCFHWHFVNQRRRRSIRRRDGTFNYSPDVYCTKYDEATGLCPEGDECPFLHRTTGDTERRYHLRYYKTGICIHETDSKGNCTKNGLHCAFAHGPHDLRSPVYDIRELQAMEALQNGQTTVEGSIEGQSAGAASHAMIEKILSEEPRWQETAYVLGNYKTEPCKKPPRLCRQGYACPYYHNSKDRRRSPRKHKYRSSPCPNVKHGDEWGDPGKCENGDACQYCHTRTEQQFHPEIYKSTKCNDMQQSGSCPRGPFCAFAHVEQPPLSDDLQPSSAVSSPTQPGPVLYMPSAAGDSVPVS
Setting: RNA with constant flanks, human-mouse chimeric sites, ends assumed
Shared flanks, not repeated: GGGAGUUCUACAGUCCGACGAUC … CAACAGAGGAUUGAGCAUCA
GAUAAGAAAAACUUGUUGGAGACCCGCUUGCAUGUCACUGGCAGAGACCUGAGGUGUCAAAUAGCUGAAACUUUCGGAUUUCAAGAAAAUUACAUCAAGAUCGUAAUAAAUAAGAAACAG: 0.347 ratio
GUAAUGGACGUCAACACUGCUUUACAAGAGGUGCUGAAGACUGCCCUCAUCCACGAUGGCCUAGCACGUGGCAUACGCGAAGCUGCCAAAGCCUUAGACAAGCGCCAAGCCCAUCUGUGU: 0.14 ratio
UGACAAGGGCACUGCAGAGCCAUGCCUUUCCUUGACAUACAGAAAAAGUUCGGCCUUAGCCUGGACCGGCACUUUAUGUUCCUAAGCGCAGAACAGCCCUACAAGAUCGCCGCUCGGUGC: 0.103 ratio
CGAGACAAGACAUCCAGGAACAUGCGAGGCUCCCGGAUGAAUGGGUUGCCUAGCCCCACUCACAGCGCCCACUGUAGCUUCUACCGAACCAGAACCUUGCAGGCACUAAGUAAUGAGAAG: 0.124 ratio
CUGGCACUGUAUCAGAUAUAUUAAUUUUUUAAUGUAGAUGUAAUUUUAAAAAUGAAUGGCUACUUUACACGUUUAACUAGGCUCUUACUAUAUAUGUGUACAUAUGUAUAUAUAUAUAUA: 2.99 ratio
GCAGGAUCUUCUAAGUACCAGUGGGACAUUAUGAAAUCCCUUGGGCUGUCUGAUGAAGACAUAGUGAAGUUUUCUGAAGCAGAGCACUGGCUUGAUUAUUUCCCACCACUGGCUAUUCAG: 0.142 ratio
GCUCCUCCCCGCUCUGCAGCCUGGGGACACUGGGCUGCAUUUUUUUUCCAGCUUUCUUUUAAAACUCUCAGUGUAACUGUAUCCCGUGACAUUUCAUUUUUUUUAAAAGAAAAAAACUUU: 0.26 ratio
UCUGGUCAUACUCGUGCGUAUGGUGUUUGCUUUGUGGAUACUUCACUGGGCAAGUUUUUCAUCGGCCAGUUUUCGGAUGACCGCCACUGUUCCAGAUUUAGGACGCUAGUGGCUCACUAU: 0.193 ratio

Series 4 — method: RNA Bind-n-Seq; form: RNA; sample: in vitro; tested at: 200 nM; setting: whole 134-nt RNA, ends assumed; with: 150 mM LiCl; baseline: input library; direction: higher = stronger binding; measurement: log2 enrichment; all molecules: 7-deaza-guanosine replaces G
Target: Ras GTPase-activating protein-binding protein 1, full length (G3BP1, Homo sapiens, UniProt Q13283)
Sequence of UniProt Q13283 (whole entry, looked up): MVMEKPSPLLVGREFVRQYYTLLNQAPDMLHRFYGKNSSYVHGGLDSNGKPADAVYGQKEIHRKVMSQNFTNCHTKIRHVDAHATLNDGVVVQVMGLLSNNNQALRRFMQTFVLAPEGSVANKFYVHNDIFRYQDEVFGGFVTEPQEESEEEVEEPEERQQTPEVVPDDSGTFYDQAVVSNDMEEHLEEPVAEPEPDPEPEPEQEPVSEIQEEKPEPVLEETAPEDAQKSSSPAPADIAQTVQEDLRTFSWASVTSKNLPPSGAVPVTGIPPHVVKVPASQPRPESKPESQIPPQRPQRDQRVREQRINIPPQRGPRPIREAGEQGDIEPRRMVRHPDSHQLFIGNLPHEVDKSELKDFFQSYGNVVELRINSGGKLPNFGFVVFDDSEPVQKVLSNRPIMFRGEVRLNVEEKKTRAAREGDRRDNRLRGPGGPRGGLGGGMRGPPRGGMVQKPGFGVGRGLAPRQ
Shared flanks, not repeated: GGGAGUUCUACAGUCCGACGAUC … UGGAAUUCUCGGGUGUCAAGG
GUCCUGUGCUACACAUCGUAUGUACCGAAUCGGGAAAAAAAGGGUUUUUGGGAAAGGGAAAGUAUUAUGUUACGCCGUUCGGAUCUGCAC: -1.48
CAAGUCCUGUGCUACACAUCGUAUGUACCGAAUCGGGGAAAGGGAAAGGAAAGGGAAAGUAUUAUGUUACGCCGUUCGGAUCUGCACUUC: -0.261
UAACUUUAGAGGAGGAUCUGAUGGAUAUAGCAGUGGACGUGGAUUUGGGGAUGGCUAUAAUGGGUAUGGAGGAGGACCUGGAGGUGGCAA: 0.0999
CAAGUCCUGUGCUACACAUCGUAUGUACCGAAUCGGGGAAAGGAAAGGGAAAGGGAAAGUAUUAUGUUACGCCGUUCGGAUCUGCACUUC: -0.487
CCUCAAGUCCUGUGCUACACAUCGUAUGUACCGAAUCGGGAGGGAGGGGAGGGAAAGUAUUAUGUUACGCCGUUCGGAUCUGCACUUCCA: -0.0289
CAAGUCCUGUGCUACACAUCGUAUGUACCGAAUCGGGUUUUGGUUUUGGGUUUUGGAAAGUAUUAUGUUACGCCGUUCGGAUCUGCACUU: -1.07
CACAGACAACACGCACCCACACAGACACAGAGGGAAGGGGUUGGGAUGGGGACAGGGUGCACAGCAAGGCGGGGUAGGACCCCAGCCCCU: 0.257
CUCAAGUCCUGUGCUACACAUCGUAUGUACCGAAUCGGAAAAAGGAAAGGUGGAAAGUAUUAUGUUACGCCGUUCGGAUCUGCACUUCCA: -0.494

Repeated from above (series 1):
AAGGGGTA: -0.208
TCAGGTAA: -0.174
ATCCGGAG: 0.211
